Experimental data pooled from the literature.
Each line is one published result; not all experiments were run side by side. Several values in a cell are separate wells, animals, samples, runs or records. Values after ≈ are worked out from the molar mass of the structure shown.
Sequence of UniProt P49760 (whole entry, looked up): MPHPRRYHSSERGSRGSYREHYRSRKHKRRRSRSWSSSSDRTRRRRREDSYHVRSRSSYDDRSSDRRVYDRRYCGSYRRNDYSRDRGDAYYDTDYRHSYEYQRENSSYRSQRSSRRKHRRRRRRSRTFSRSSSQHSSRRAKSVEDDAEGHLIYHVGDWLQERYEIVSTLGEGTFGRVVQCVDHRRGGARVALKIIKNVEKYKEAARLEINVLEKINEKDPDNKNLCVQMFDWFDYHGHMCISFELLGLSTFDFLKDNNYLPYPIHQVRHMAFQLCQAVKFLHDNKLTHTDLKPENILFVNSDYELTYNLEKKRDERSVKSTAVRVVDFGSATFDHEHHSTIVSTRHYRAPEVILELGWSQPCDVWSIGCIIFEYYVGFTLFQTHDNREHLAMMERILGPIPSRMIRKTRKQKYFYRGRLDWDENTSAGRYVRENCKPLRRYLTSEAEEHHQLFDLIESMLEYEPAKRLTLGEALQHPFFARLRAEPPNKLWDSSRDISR

SMILES | target or system | assay | test system | setting | scale | measurement | result
CC[C@H](C)[C@@H]1NC(=O)[C@@H]2CCCN2C(=O)[C@H](CC(C)C)NC(=O)[C@H](CC(C)C)NC(=O)CNC(=O)[C@@H](NC(=O)[C@@H](NC(=O)[C@H](CC(=O)O)NC(=O)CNC(=O)[C@@H](NC(=O)[C@H](C)NC(=O)CNC(=O)[C@H](CCCCN)NC(=O)[C@H](CC(C)C)NC(=O)[C@H](CC(C)C)NC(=O)[C@H](CCCCN)NC(=O)CNC(=O)[C@@H](NC(=O)[C@@H](N)CC(C)C)C(C)C)C(C)C)C(C)C)CSSC[C@@H](C(=O)O)NC1=O | – | RNA-seq, item: Spn mRNA | mouse traumatic brain injury, frontal cortex and hippocampus | dose not given | relative to: TBI plus compound vs TBI | log2 fold change | -1.86
O=C1c2c(O)c(=O)ccn2N([C@@H]2c3ccccc3SCc3c2ccc(F)c3F)[C@@H]2COCCN12 | influenza A virus | – | A/WSN/33 (H1N1), BALB/c mouse, lung | subcutaneous, 0.5 mg/kg every 6 h, 24 h | – | lung virus titre | 2.67 log10 TCID50/mL
CN1C(=O)C(C2C3=C(CC(C)(C)CC3=O)Oc3c(O)cccc32)C(=O)N(C)C1=O (stereo not drawn) | 3T3-L1 adipocytes | qPCR, item: aP2 | – | IC20, 14 days, adipogenic induction | relative to: untreated | mRNA level | no effect
C[C@H]1O[C@@H](O[C@H]2CC[C@@]3(C)[C@@H](CC[C@]4(C)[C@@H]3C=C[C@]35OC[C@@]6(CCC(C)(C)C[C@H]63)[C@@H](O)C[C@]54C)[C@]2(C)CO)[C@H](O)[C@@H](O[C@@H]2O[C@H](CO)[C@@H](O)[C@H](O)[C@H]2O)[C@H]1O | – | – | mouse, pair-fed, AAV8-TBG-Null | dose not given, high dose | – | liver to body weight ratio | 3.39% and 3.67% and 2.95% and 3.78% and 2.75% and 3.25%
COc1c(CCC[P+](c2ccccc2)(c2ccccc2)c2ccccc2)cc2c(c1OC)OCO2.[I-] | UACC-62 | SRB | – | – | – | LC50 | -4.48 log M
O=C(Cc1cccc(I)c1)N[C@H]1CCOC1=O | ExpR1 (Pectobacterium carotovorum) | cellulase activity, agonist | Pectobacterium carotovorum, single-ExpR1 strain | 200 µM, 4 h | relative to: OHHL | activation | 32%
COc1cc(CCC[P+](c2ccccc2)(c2ccccc2)c2ccccc2)c(OC)c2c1OCO2.[I-] | SNB-19 | SRB | – | – | – | GI50 | -5.93 log M
CS(=O)(=O)CCCn1c(Cn2c(=O)n(CC(F)(F)F)c3ccncc32)cc2cc(Cl)ccc21 | respiratory syncytial virus | RT-qPCR | hospitalized infants 1-24 months, nasal swab | oral, 6, 4.5 or 3 mg/kg daily, day 14, mid dose by age cohort | relative to: baseline | LS mean viral load change | -4.25 log10 copies/mL
C#CC[C@@H](N)C(=O)N[C@H](CO)C(=O)N[C@@H](C(=O)N[C@H](CO)C(=O)N[C@H](CCC(=O)O)C(=O)N[C@@H](C(=O)N[C@H](CCC(N)=O)C(=O)N[C@H](CC(C)C)C(=O)N[C@H](CCSC)C(=O)N[C@H](Cc1c[nH]cn1)C(=O)N[C@H](CC(N)=O)C(=O)N[C@H](CC(C)C)C(=O)NCC(=O)N[C@H](CCCCN)C(=O)N[C@H](Cc1c[nH]cn1)C(=O)N[C@H](CC(C)C)C(=O)N[C@H](CC(N)=O)C(=O)N[C@H](CO)C(=O)N[C@H](CCSC)C(=O)N[C@H](CCC(=O)O)C(=O)N[C@H](CCCNC(=N)N)C(=O)N[C@@H](C(=O)N[C@H](Cc1ccc(O)cc1)C(=O)N[C@H](Cc1c[nH]c2ccccc12)C(=O)N[C@H](CC(C)C)C(=O)N[C@H](CCCNC(=N)N)C(=O)N[C@H](Cc1ccccc1)C(=O)N[C@H](CCCCN)C(=O)N[C@H](CC(C)C)C(=O)N[C@H](CCC(N)=O)C(=O)N[C@H](C)C(=O)N[C@@H](C(N)=O)C(C)C)C(C)C)[C@H](C)CC)C(C)C | hemagglutinin influenza A/California/07/2009 H1N1 | – | – | – | – | IC50 | 33 µM
COc1ccc(-n2nc(C(C)=O)s/c2=N\N=C(/C)c2ccc(NC(C)=O)cc2)cc1 | MCF7 | – | – | 10 µM | – | toxicity | 93.3%
CC[C@H](C)[C@H](NC(=O)[C@H](C)NC(=O)[C@H](CCCCN)NC(=O)[C@H](CC(C)C)NC(=O)[C@H](C)NC(=O)[C@@H](NC(=O)[C@H](Cc1c[nH]cn1)NC(=O)[C@H](CC(C)C)NC(=O)[C@@H](NC(=O)[C@@H](NC(=O)[C@H](CCCCN)NC(=O)[C@H](C)NC(=O)[C@H](C)NC(=O)[C@H](CO)NC(=O)[C@H](CCCCN)NC(=O)[C@H](Cc1ccccc1)NC(=O)[C@@H](NC(=O)[C@H](CCCCN)NC(=O)[C@H](CC(C)C)NC(=O)[C@H](Cc1ccccc1)NC(=O)[C@H](CO)NC(=O)[C@H](CCCCN)NC(=O)[C@H](Cc1c[nH]c2ccccc12)NC(=O)[C@H](CCCCN)NC(C)=O)[C@@H](C)O)[C@@H](C)O)C(C)C)[C@@H](C)O)C(=O)N[C@@H](CO)C(=O)N[C@@H](CO)C(N)=O | Acinetobacter baumannii | – | – | 33 strains | – | MIC50 | 2 µg/mL (≈ 0.682 µM)
COc1cc2ccc3oc([N+](=O)[O-])cc3c2cc1OC | Mycobacterium bovis BCG | – | 1173 P2 | – | – | MIC90 | 0.125 µg/mL (≈ 0.457 µM)
OC(Cn1cncn1)(Cn1cncn1)c1ccc(F)cc1F | Saccharomyces cerevisiae | cell growth | Pdr5 deleted, Cdr1 overexpressed | 2^6.492 µg/mL | – | OD600 | 0.082 and 0.113 and 0.131
COCCC1=C(C(=O)OC)C(c2ccc(Cl)cc2)C2=C(CC(c3cc(OC)c(OC)c(OC)c3)CC2=O)N1 (single isomer, unassigned) | Plasmodium berghei | parasitaemia | KBG-173, mouse | oral, 50 mg/kg, day 6 post-infection, PEG400 vehicle, Thompson test | relative to: vehicle | inhibition | > 75% and 77.6%
Cc1cn(-c2cc(NC(=O)c3ccc(C)c(Nc4nccc(-c5cccnc5)n4)c3)cc(C(F)(F)F)c2)cn1 | – | – | human patients | dose not given, 12 months vs baseline, within treated group, unit not given | relative to: baseline | ADAS-Cog maze time change | 1.25
C[C@]1(CO)Cc2ncn(-c3ccc(C#N)c(Cl)c3)c2C(=O)O1 | – | aldosterone synthesis, inhibitor, item: potassium | healthy Japanese adults, urine | 80 mg, 0-24 h after first dose, multiple rising dose | – | urinary excretion | 25.9 mmol
O=C(Cc1ccc2ccccc2c1)N[C@H]1CCOC1=O | ExpR1 (Pectobacterium carotovorum) | cellulase activity, agonist | Pectobacterium carotovorum, single-ExpR1 strain | 200 µM, 4 h | relative to: OHHL | activation | 8%
C[C@H]1CN(c2n[nH]c3nc(N[C@H]4CC[C@H](NS(=O)(=O)CCC(F)(F)F)CC4)ncc23)CCO1 | CLK2 (Homo sapiens, UniProt P49760) | inhibitor, Kinobeads competition profiling | – | 0.16 µM | relative to: vehicle | relative abundance | 1.08
CCCCC1(CCCC)CN(c2ccccc2)c2cc(SC)c(OCC(=O)N[C@@H](C(=O)NCC(=O)O)c3ccccc3)cc2S(=O)(=O)C1 | – | item: LDL cholesterol | human, serum | 5 mg once daily, day 7 | – | serum LDL-C | 100 mg/dL
CC[C@@H](NC(=O)CNC(=O)[C@@H](CC(C)C)NC(=O)CNC(=O)[C@H](N)CCC(N)=O)C(=O)N[C@H](CC(=O)O)C(=O)N[C@H](CCC(=O)O)C(=O)N[C@H](CCSC)C(=O)N[C@H](CC(C)C)C(=O)N[C@H](CCC(N)=O)C(=O)NCC(=O)N[C@H](Cc1ccccc1)C(=O)N[C@H](C)C(=O)N[C@@H](C(=O)N[C@H](C)C(=O)N[C@@H](C(=O)N[C@H](CCCCN)C(=O)N[C@H](CCSC)C(=O)NCC(=O)N[C@H](C)C(=O)N[C@H](Cc1ccc(O)cc1)C(=O)N[C@H](CCCCN)C(=O)N[C@H](C)C(=O)N[C@H](Cc1c[nH]c2ccccc12)C(=O)O)C(C)C)C(C)C | hemagglutinin influenza A/California/07/2009 H1N1 | – | – | – | – | IC50 | 24 µM
CC(C)N1CCC(NC2CCN(c3cccc(-c4cc5cc(F)ccc5[nH]4)c3)CC2)CC1 | 786-0 | – | – | – | – | GI50 | 1.65 µM

Excerpt of the above:
SMILES | target or system | assay | test system | setting | scale | measurement | result
COc1cc2ccc3oc([N+](=O)[O-])cc3c2cc1OC | Mycobacterium bovis BCG | – | 1173 P2 | – | – | MIC90 | 0.125 µg/mL (≈ 0.457 µM)
C#CC[C@@H](N)C(=O)N[C@H](CO)C(=O)N[C@@H](C(=O)N[C@H](CO)C(=O)N[C@H](CCC(=O)O)C(=O)N[C@@H](C(=O)N[C@H](CCC(N)=O)C(=O)N[C@H](CC(C)C)C(=O)N[C@H](CCSC)C(=O)N[C@H](Cc1c[nH]cn1)C(=O)N[C@H](CC(N)=O)C(=O)N[C@H](CC(C)C)C(=O)NCC(=O)N[C@H](CCCCN)C(=O)N[C@H](Cc1c[nH]cn1)C(=O)N[C@H](CC(C)C)C(=O)N[C@H](CC(N)=O)C(=O)N[C@H](CO)C(=O)N[C@H](CCSC)C(=O)N[C@H](CCC(=O)O)C(=O)N[C@H](CCCNC(=N)N)C(=O)N[C@@H](C(=O)N[C@H](Cc1ccc(O)cc1)C(=O)N[C@H](Cc1c[nH]c2ccccc12)C(=O)N[C@H](CC(C)C)C(=O)N[C@H](CCCNC(=N)N)C(=O)N[C@H](Cc1ccccc1)C(=O)N[C@H](CCCCN)C(=O)N[C@H](CC(C)C)C(=O)N[C@H](CCC(N)=O)C(=O)N[C@H](C)C(=O)N[C@@H](C(N)=O)C(C)C)C(C)C)[C@H](C)CC)C(C)C | hemagglutinin influenza A/California/07/2009 H1N1 | – | – | – | – | IC50 | 33 µM
OC(Cn1cncn1)(Cn1cncn1)c1ccc(F)cc1F | Saccharomyces cerevisiae | cell growth | Pdr5 deleted, Cdr1 overexpressed | 2^6.492 µg/mL | – | OD600 | 0.082 and 0.113 and 0.131
